# Measured values of several laboratories.
# Compare with care: the assays were run in different laboratories. ± gives the spread as reported.
# UniProt P49116, sequence (whole entry, looked up): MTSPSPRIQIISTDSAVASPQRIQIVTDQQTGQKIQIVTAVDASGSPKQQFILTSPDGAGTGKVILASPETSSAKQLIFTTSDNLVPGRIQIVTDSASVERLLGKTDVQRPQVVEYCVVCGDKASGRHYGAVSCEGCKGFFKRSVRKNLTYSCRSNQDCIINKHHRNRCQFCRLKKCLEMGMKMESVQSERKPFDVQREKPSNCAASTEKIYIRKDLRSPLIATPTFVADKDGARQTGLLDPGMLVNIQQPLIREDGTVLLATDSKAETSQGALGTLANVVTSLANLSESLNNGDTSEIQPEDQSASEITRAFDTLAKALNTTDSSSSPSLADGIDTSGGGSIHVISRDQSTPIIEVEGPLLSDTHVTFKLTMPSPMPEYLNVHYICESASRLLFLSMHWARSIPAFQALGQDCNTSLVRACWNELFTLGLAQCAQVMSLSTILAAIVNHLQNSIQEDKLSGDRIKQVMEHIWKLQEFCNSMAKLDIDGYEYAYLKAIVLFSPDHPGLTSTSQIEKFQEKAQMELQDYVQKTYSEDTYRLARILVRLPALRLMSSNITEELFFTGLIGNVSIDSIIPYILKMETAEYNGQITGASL
SMILES,tested on,assay,system,setting,how to read,quantity,result
CC(C)(C)CC(C)(C)c1ccc(O)c(-n2nc3ccccc3n2)c1,,,EpiSkin reconstructed epidermis,"concentration not given, 36 h",,amount in receptor fluid,not detected
COc1ccc2[nH]c([S+]([O-])Cc3ncc(C)c(OC)c3C)nc2c1 (stereo not shown),,,"human male, plasma and dried plasma spots","oral, dose not given, 4 h",baseline: rifampicin-induced over baseline,R/S ratio change,1.14
CO[C@H]1C[C@@H]2CC[C@@H](C)[C@@](O)(O2)C(=O)C(=O)N2CCCC[C@H]2C(=O)O[C@H]([C@H](C)C[C@@H]2CC[C@@H](O)[C@H](OC)C2)CC(=O)[C@H](C)/C=C(\C)[C@@H](O)[C@@H](OC)C(=O)[C@H](C)C[C@H](C)/C=C/C=C/C=C/1C,,,healthy adult horses,"intravenous, 0.06 mg/kg, 2 h",,rectal temperature,37.3 ± 0.3 °C
CCCC(CCC)C(=O)O,OCI-Ly1,,,"0.1 µM, 120 h",,viability,185%
[18F]c1ccc(-c2ccc3c(c2)[nH]c2ccncc23)cn1,,ex vivo biodistribution,"APP/PS1 mouse, AD model, pancreas","intravenous, 30 min",,SUV,1.23 ± 0.033
N#Cc1ccc2c(c1)[C@H]1CCCN(C(=O)c3ccc4[nH]cnc4c3)[C@H]1C2,,,human,"40 mg, day 7",baseline: baseline,ACTH level change,1.1 pmol/L
O=c1c2ccccc2oc2ccccc12,,,tricaprin-tricaprylin mixture,"45 °C, tricaprin fraction 0.56",,solubility,0.0606 mole fraction
C[C@H]1[C@H](NC(=O)/C(=N\OC(C)(C)C(=O)O)c2csc(N)n2)C(=O)N1S(=O)(=O)O,,starch gel membrane permeability,Gram-negative envelope surrogate,"200 µM, 60 min, pH 7.4",,amount permeated,3.7 nmol
N#CC[C@H](C1CCCC1)n1cc(-c2ncnc3[nH]ccc23)cn1,"Nuclear receptor subfamily 2 group C member 2, ligand-binding domain (Homo sapiens, UniProt P49116)",SPR imaging,,,,Kd,123 pM
O=[N+]([O-])c1ccc(-c2ccc(O)cc2)c2cccnc12,,,"male ICR mouse, plasma","intravenous, 1 mg/kg",,elimination rate constant,0.00153 s⁻¹
CC1(C)CCC(CN2CCN(c3ccc(C(=O)NS(=O)(=O)c4ccc(NCC5CCOCC5)c([N+](=O)[O-])c4)c(Oc4cnc5[nH]ccc5c4)c3)CC2)=C(c2ccc(Cl)cc2)C1,,,patients,"oral, dose not given, steady state",,median trough concentration (C0),879 ng/mL
CC(C)(C(=O)N1CCOc2c(C#N)cncc2C1)C(F)F,,measured: eye disorders,"healthy humans, both sexes","oral, 10 mg single dose",,subjects with TEAE,0%
O=C(O)/C=C/c1ccccc1O,,,human plasma,median,,plasma concentration,110 nM
O=C(/C=C/c1ccc(O)cc1)c1ccc(O)cc1O,OCI-Ly1,,,"1 µM, 120 h",,viability,168%
O=S(=O)(O)Oc1cccc(O)c1O,,,human plasma,mean,,plasma concentration,1130 nM
CC[C@H](C)[C@H](NC(=O)[C@H](Cc1ccccc1)NC(=O)[C@H](CCC(=O)O)NC(=O)[C@H](CCCCNC(=O)COCCOCCNC(=O)COCCOCCNC(=O)CC[C@H](NC(=O)CCCCCCCCCCCCCCCCC(=O)O)C(=O)O)NC(=O)[C@H](C)NC(=O)[C@H](C)NC(=O)[C@H](CCC(N)=O)NC(=O)CNC(=O)[C@H](CCC(=O)O)NC(=O)[C@H](CC(C)C)NC(=O)[C@H](Cc1ccc(O)cc1)NC(=O)[C@H](CO)NC(=O)[C@H](CO)NC(=O)[C@@H](NC(=O)[C@H](CC(=O)O)NC(=O)[C@H](CO)NC(=O)[C@@H](NC(=O)[C@H](Cc1ccccc1)NC(=O)[C@@H](NC(=O)CNC(=O)[C@H](CCC(=O)O)NC(=O)C(C)(C)NC(=O)[C@@H](N)Cc1cnc[nH]1)[C@@H](C)O)[C@@H](C)O)C(C)C)C(=O)N[C@@H](C)C(=O)N[C@@H](Cc1c[nH]c2ccccc12)C(=O)N[C@@H](CC(C)C)C(=O)N[C@H](C(=O)N[C@@H](CCCNC(=N)N)C(=O)NCC(=O)N[C@@H](CCCNC(=N)N)C(=O)NCC(=O)O)C(C)C,,,type 2 diabetes patients,"dose not given, hypoglycaemic clamp, nadir to recovery",baseline: placebo,systolic blood pressure difference,1.4 mm Hg
O=c1ccc2ccc(O)c(O)c2o1,,,human plasma,"mean, both sexes",,plasma concentration,91 nM
CN[C@H](CC(C)C)C(=O)N[C@H]1C(=O)N[C@@H](CC(N)=O)C(=O)N[C@H]2C(=O)N[C@H]3C(=O)N[C@H](C(=O)N[C@H](C(=O)O)c4cc(O)cc(O)c4-c4cc3ccc4O)[C@H](O)c3ccc(c(Cl)c3)Oc3cc2cc(c3O[C@@H]2O[C@H](CO)[C@@H](O)[C@H](O)[C@H]2O[C@H]2C[C@](C)(N)[C@H](O)[C@H](C)O2)Oc2ccc(cc2Cl)[C@H]1O,,starch gel membrane permeability,Gram-negative envelope surrogate,"200 µM, 10 min, pH 7.4",,amount permeated,0.07 nmol
C=Cc1c(C)c2cc3nc(c4c5[nH]c(cc6nc(cc1[nH]2)C(C)=C6CC)c(C)c5C(=O)C4)[C@@H](CCC(=O)O)[C@@H]3C,,absorbance spectroscopy,methanol,"10 µM, red-shifted range",,absorbance maximum,666 nm
CCn1ccc2c([C@](O)(c3ccc(C(F)(F)F)nc3)C3CC3)n(C)nc2c1=O,,,"rat Sprague-Dawley male, plasma","intravenous, 1 mg/kg",,CL,20.7 ± 1.81 mL/min/kg
CC(F)(F)c1nc2nc(CO)cc(Nc3ccc(S(F)(F)(F)(F)F)cc3)n2n1,,LC-MS/MS,"malaria patients, plasma","oral, 600 mg of parent drug",,"Cmax, metabolite",897 ng/mL
O=C(N[C@H](Cc1c[nH]c2ccccc12)C(=O)Nc1ccncc1)c1ccc(N2CCN(c3ccc(F)cc3F)CC2)cc1F,,,"Swiss Webster mouse, female, muscle","oral, 50 mg/kg, 8 h, 20% Kolliphor vehicle",,concentration,3720 nM
